Assay results collected from several papers.
Compare with care: the assays were run in different laboratories. Numbers after ± are the reported error.
OPRD1: Delta-type opioid receptor (OPRD1, Homo sapiens, UniProt P41143)
Chain of UniProt P41143 (whole entry, looked up): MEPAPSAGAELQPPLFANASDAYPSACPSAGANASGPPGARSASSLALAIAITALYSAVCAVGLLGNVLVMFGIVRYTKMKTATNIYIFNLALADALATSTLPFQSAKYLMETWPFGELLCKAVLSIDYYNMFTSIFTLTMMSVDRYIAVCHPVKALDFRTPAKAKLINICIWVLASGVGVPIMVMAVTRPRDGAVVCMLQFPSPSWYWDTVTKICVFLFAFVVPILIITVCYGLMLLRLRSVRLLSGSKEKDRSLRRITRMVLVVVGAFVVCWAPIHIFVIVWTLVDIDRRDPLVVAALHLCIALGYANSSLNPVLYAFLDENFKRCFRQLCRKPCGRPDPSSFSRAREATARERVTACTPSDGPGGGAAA

CCCCCCCCN1CCC23c4c5ccc(O)c4OC2c2nc4ccccc4cc2CC3(O)C1C5 (stereo not drawn)
EC50 (Delta-type opioid receptor, with Gi1 (OPRD1, Homo sapiens, UniProt P41143); human cells): 390 nM

CC[C@H](C)[C@H](NC(=O)[C@@H](N)Cc1ccc(O)cc1)C(=O)N[C@@H](Cc1ccccc1)C(=O)N[C@@H](CC(N)=O)C(=O)N[C@@H](CC(C)C)C(=O)O
IC50 (OPRD1; radioligand binding, inhibitor; MCF7; together with: [3H]DPDPE or [3H]DSLET): 3.25 ± 4.2e-10 nM

N[C@@H](Cc1ccc(C(=O)NCCc2ccc(C3CCCCC3)cc2)cc1)C(=O)N1Cc2ccccc2C[C@H]1C(=O)N[C@@H](Cc1ccccc1)C(=O)N[C@@H](Cc1ccccc1)C(=O)O
EC50 (OPRD1; GTPγS binding, agonist, radiometric): 1.69 nM

CCCC[C@H](NC(=O)[C@H](Cc1ccccc1)NC(=O)CNC(=O)[C@@H](C)NC(=O)[C@@H](N)Cc1ccc(O)cc1)C(=O)N1CCC[C@H]1C(=O)N[C@@H](CC(C)C)C(=O)N[C@@H](CO[C@@H]1O[C@H](CO)[C@@H](O)[C@H](O)[C@H]1O)C(=O)N[C@@H](Cc1c[nH]c2ccccc12)C(=O)NCc1cc(C(F)(F)F)cc(C(F)(F)F)c1
IC50 (OPRD1; ligand displacement, radioligand): 1.48 nM

CC(C)[C@H]1CC[C@@H](N2CC[C@@](C)(c3cccc(O)c3)[C@@H](C)C2)CC1
Ki (OPRD1; ligand displacement, radioligand): 586 nM

C[C@@H](NC(=O)[C@@H](N)Cc1ccc(O)cc1)C(=O)NCC(=O)N[C@@H](Cc1ccc(F)cc1)C(=O)N1CCN(C(=O)[C@H](Cc2ccc(F)cc2)NC(=O)CNC(=O)[C@@H](C)NC(=O)[C@@H](N)Cc2ccc(O)cc2)CC1
EC50 (OPRD1; GTPγS binding, agonist; cell membranes): 0.8 nM

CC(C)C[C@H](NC(=O)[C@H](Cc1ccccc1)NC(=O)CN(Cc1ccccc1[N+](=O)[O-])C(=O)CNC(=O)[C@@H](N)Cc1ccc(O)cc1)C(=O)O
EC50 (OPRD1; reporter gene (SEAP), agonist; HEK-293T cells; caged form, no photolysis): 1290 nM

N=C(N)NCCCCCCCN1CC[C@]23c4c5ccc(O)c4O[C@H]2c2nc4ccccc4cc2C[C@@]3(O)[C@H]1C5
EC50 (Delta-type opioid receptor, with β-arrestin2 (OPRD1, Homo sapiens, UniProt P41143); human cells): 500 nM

C[C@@H](NC(=O)[C@@H](N)Cc1ccc(O)cc1)C(=O)NCC(=O)N[C@@H](Cc1ccc(F)cc1)C(=O)Nc1ccccc1NC(=O)[C@H](Cc1ccc(F)cc1)NC(=O)CNC(=O)[C@@H](C)NC(=O)[C@@H](N)Cc1ccc(O)cc1
Ki (OPRD1; ligand displacement, radioligand; cell membranes): 12.8 nM

N[C@@H](Cc1ccc(C(=O)NCCc2c[nH]c3ccccc23)cc1)C(=O)N1Cc2ccccc2C[C@H]1C(=O)N[C@@H](Cc1ccccc1)C(=O)N[C@@H](Cc1ccccc1)C(=O)O
EC50 (OPRD1; GTPγS binding, agonist, radiometric): 7.08 nM

CCCC[C@@H]1NC(=O)[C@H](Cc2ccccc2)NC(=O)CNC(=O)[C@H](NC(=O)[C@@H](N)Cc2ccc(O)cc2)C(C)(C)SSC(C)(C)[C@H](C(=O)N[C@@H](Cc2c[nH]c3ccccc23)C(=O)NCc2cc(C(F)(F)F)cc(C(F)(F)F)c2)NC(=O)[C@@H]2CCCN2C1=O
EC50 (OPRD1; GTPγS binding, agonist, radiometric; cell membranes): 120 nM

CCCC[C@@H](C(=O)N[C@@H](CC(=O)O)C(=O)N[C@@H](Cc1ccccc1)C(N)=O)N(C)C(=O)[C@@H](Cc1c[nH]c2ccccc12)NC(=O)CNC(=O)[C@@H](Cc1ccccc1)NC(=O)[C@@H](N)Cc1ccc(O)cc1
EC50 (OPRD1; GTPγS binding, agonist; cell membranes): 20.9 nM

C[C@H]1[C@H]2CCC[C@]1(c1cccc(O)c1)CCN2CCc1ccccc1
EC50 (OPRD1; GTPγS binding, agonist, radiometric; cell membranes): 1310 nM

CCC(=O)N(CC1CCCCN1C(=O)[C@H](Cc1ccccc1)NC(=O)CNC(=O)[C@@H](C)NC(=O)[C@@H](N)Cc1ccc(O)cc1)c1ccccc1 (stereo partly drawn)
Ki (OPRD1; cell-free assay): 2 nM

CCCCCCCCCCNC(=O)c1ccc(C[C@H](N)C(=O)N2Cc3ccccc3C[C@H]2C(=O)N[C@@H](Cc2ccccc2)C(=O)N[C@@H](Cc2ccccc2)C(=O)O)cc1
EC50 (OPRD1; GTPγS binding, agonist, radiometric): 0.239 nM

For quick reference, copied from above:
CCCC[C@@H](C(=O)N[C@@H](CC(=O)O)C(=O)N[C@@H](Cc1ccccc1)C(N)=O)N(C)C(=O)[C@@H](Cc1c[nH]c2ccccc12)NC(=O)CNC(=O)[C@@H](Cc1ccccc1)NC(=O)[C@@H](N)Cc1ccc(O)cc1
EC50 (OPRD1; GTPγS binding, agonist; cell membranes): 20.9 nM

C[C@H]1[C@H]2CCC[C@]1(c1cccc(O)c1)CCN2CCc1ccccc1
EC50 (OPRD1; GTPγS binding, agonist, radiometric; cell membranes): 1310 nM
